Measured values pooled from the literature.
Lines come from different studies, so protocols differ. Several values in a cell are separate wells, animals, samples, runs or records. ± gives the spread as reported.

For `CC[S+]([O-])c1nc(-c2ccccc2)cc(C(F)(F)F)n1` (stereo not shown), “cells with nuclear RelA” read 77.3% and 55.8% (HeLa Kyoto; RelA nuclear import, high content imaging; 5.01 µM, 3 h, added: 1 µM PMA, 60 min).
For `Clc1ccc(N/N=C(\c2ccccc2)c2ccccn2)nc1`, the viability was 3.03% (HBL-1; 1 µM, 120 h).
For `CC(Nc1nc(N2CCCC2)nc2ccccc12)c1ccccc1` (stereo not shown), “cells with nuclear RelA” read 77.8% and 80.7% (HeLa Kyoto; RelA nuclear import, high content imaging; 15.82 µM, 3 h, added: 1 µM PMA, 60 min).
`Cn1cc(-c2ccc(-c3cncc(Cl)c3N3CCC4(CCNC4=O)CC3)cc2)cn1`: “log2 fold change” 1.46 (COLO 205; gene expression, microarray, item: PRKCE mRNA; concentration not given, 2 h; reference: untreated cells).
With `CCCCc1nc2cc(/C=C/C(=O)NO)ccc2n1CCN(CC)CC` the inhibition was 91.3% (BT-12; cell viability, MTT; 10 µM, 72 h).
With `CCOC(=O)c1c(C)[nH]c(/C=C2\C(=O)Nc3ccccc32)c1C` the inhibition was 100% (HeLa expressing Ub(G76V)-GFP; Ub(G76V)-GFP degradation, cycloheximide chase; 12 µM).
`CC/C(=N\NC(=O)C(C)Nc1ccccc1)c1ccc(O)c(C)c1O` (stereo not shown) — result for “LATS band intensity”: 1 ± 0.26 (SK-OV-3; Western blot; 10 µM, 6 h, 3D gellan gum culture, unit not given; reference: DMSO).
The EC50 of `CCn1cc(-c2cc(Cn3ccnc3)cc3c2CCN([C@H](c2cc(OC)ccn2)C2CC2)C3=O)c(C(F)(F)F)n1` is reported as 16800 nM (ML1; cell growth, inhibitor; 120 h).
`C=CC(=O)N1CCCN(C(=O)c2cc(Sc3cnc(NC(=O)C4CC4)s3)c(C)cc2OC)C[C@H]1C` — result for “viability and proliferation”: “no effect” (human primary T cells; below 10 µM, added: TCR stimulation).
`CC(C)[C@H](C(=O)Nc1ccc(C(=O)NO)cc1)c1ccccc1` gave a viability of 75.1% (HBL-1; 0.1 µM, 120 h).
The EC50 of `Nc1n[nH]c2nc(-c3cccc(O)c3)cc(-c3cc4ccccc4nc3N3CCOCC3)c12` is reported as 294 ± 1 nM (WI-38; cell viability, MTT; 72 h).
For `Cn1cc(Nc2nccc(-c3ccc4c(c3)CN(C3COC3)CC[C@H]4NC(=O)c3cn(C(C)(C)C)nn3)n2)cn1`, “number of upregulated genes” read 256 (human B cells; 100 nM, 64 h, stimulation-downregulated genes, added: CD40L, anti-IgM, IL-21).
The viability of `O=C(/C=C/C#Cc1cccc(NS(=O)(=O)c2ccccc2)c1)NO` is reported as 5.47% (HBL-1; 1 µM, 120 h).
With `CC[C@H](C)C(=O)O[C@H]1C[C@@H](C)C=C2C=C[C@H](C)[C@H](CC[C@@H]3C[C@@H](O)CC(=O)O3)[C@H]21` the inhibition was 83.7% (BT-12; cell viability, MTT; 10 µM, 72 h).
For `O=C(Nc1nnc2n3c(nc(-c4ccc(Cl)cc4)c1-2)SCC3=O)c1ccccc1`, the cell growth was 89.2% (Hs-578T; SRB; 10 µM, NCI60 single-dose screen; reference: untreated).
With `COc1ccc(-c2ccc3ncc4c(c3c2)n(-c2ccc(N3CCNCC3)c(C(F)(F)F)c2)c(=O)n4C)cn1.O=C(O)/C=C\C(=O)O` the inhibition was 94.3% (BT-12; cell viability, MTT; 10 µM, 72 h).
`Cc1[nH]c(/C=C2\C(=O)Nc3ccc(S(=O)(=O)N(C)c4cccc(Cl)c4)cc32)c(C)c1C(=O)N1CCN(C)CC1` gave an inhibition of 100% (HeLa expressing Ub(G76V)-GFP; Ub(G76V)-GFP degradation, inhibitor, cycloheximide chase; 12 µM).
`O=C(/C=C/C=C/C=C/C1CCCCC1)NC1=C[C@@](O)(/C=C/C=C/C=C/C(=O)NC2=C(O)CCC2=O)[C@@H]2O[C@@H]2C1=O` gave a GI50 of 17300 nM (NCI-H2110; cell growth, CellTiter-Glo; 78 h).
The viability of `CCOC(=O)CCNc1cc(N2CCc3ccccc3CC2)nc(-c2cccnc2)n1` is reported as 108% (HBL-1; 0.5 µM, 120 h).
For `CC/C(=N\NC(=O)NCc1cccc(O)c1)c1ccc(O)c(C)c1O`, “LATS band intensity” read 0.35 ± 0.24 (SK-OV-3; Western blot; 5 µM, 1 h, 3D gellan gum culture, unit not given; reference: DMSO).
`Cc1nc(-c2ccccc2)c(-c2ccncc2)o1` gave an inhibition of 4% (HeLa expressing Ub(G76V)-GFP; Ub(G76V)-GFP degradation, cycloheximide chase; 12 µM).
`COc1cnc2cccc(N3CCc4c(cc(Cn5ccnc5C)cc4-c4cn(C)nc4C(F)(F)F)C3=O)c2c1` has an EC50 of 1220 nM (EOL1; cell growth, inhibitor; 120 h).
For `O=C(CCCCCCCCC(=O)Nc1ccc(NC2=C(Cl)C(=O)c3cccnc3C2=O)cc1)NO`, the growth inhibition was 28% (MDA-MB-231; MTT; 8 µM, 48 h).
For `O=C(C[C@@H](C(F)F)n1ccc(F)n1)N1CCC(O)(Cn2cnc3c(cnn3-c3ccc(F)cc3)c2=O)CC1`, “apoptotic cells (early plus late)” read 15.2% and 11.3% and 11.6% (CHP-212 resistant cells (pooled); annexin V-PI flow cytometry; 0.1 µM, 48 h).
With `CCn1cc(-c2cc(Cn3ccoc3=N)cc3c2CCN([C@@H](C)c2cc(OC)ccn2)C3=O)c(C(F)(F)F)n1` the EC50 was 142 nM (ChaGo-K-1; cell growth, inhibitor; 120 h).
For `COc1cc2c(NC3CCN(C)CC3)nc(N3CCCN(C)CC3)nc2cc1OCCCN(C)C`, the viability was 94.2% (HBL-1; 1 µM, 120 h).
`COc1cc2c(cc1OC)-c1[nH]nc(Nc3cccc(F)c3)c1C2` gave an inhibition of -1% (HeLa expressing Ub(G76V)-GFP; Ub(G76V)-GFP degradation, cycloheximide chase; 12 µM).
`CCC/N=C1\S/C(=C\c2ccc(OC[C@H](O)CO)c(Cl)c2)C(=O)N1c1ccccc1C`: “log2 fold change” 0.544 (human primary astrocytes; single-cell RNA-seq, item: CSF2 mRNA; concentration not given, 48 h, added: cytokine stimulation; reference: cytokine alone).
For `Cc1ccc(S(=O)(=O)/C=C/C#N)cc1`, the inhibition was 94.6% (BT-12; cell viability, MTT; 10 µM, 72 h).
The fold change of `C=Cc1c2[n-]c(c1C)/C=c1\[n-]/c(c(C)c1C=C)=C\c1[n-]c(c(CCC(=O)O)c1C)/C=c1\[n-]c(c(C)c1CCC(=O)O)=C2.[Sn+4]` is reported as 1.63 (SH-SY5Y; RNA-seq, item: VCL mRNA; 5 µM, 5 h; reference: untreated cells).
For `COc1ccc(COc2ccc(Cc3cnc(N)nc3N)cc2OC)cc1`, the ATP level was 102% (hiPSC cardiomyocytes; CellTiter-Glo; concentration not given, 24 h; reference: vehicle).
For `O=C(c1ccccc1)c1ccc(N2CCOCC2)cc1O`, the inhibition was -10% (HeLa expressing Ub(G76V)-GFP; Ub(G76V)-GFP degradation, cycloheximide chase; 12 µM).
For `O=C1c2c(O)ccc(O)c2C(=O)c2c(NCCNCCO)ccc(NCCNCCO)c21`, the inhibition was 94.7% (BT-12; cell viability, MTT; 10 µM, 72 h).
Under mRNA level, `CCCCc1oc2ccccc2c1C(=O)c1cc(I)c(OCCN(CC)CC)c(I)c1` is recorded as “decreased” (mouse embryonic stem cells; item: Meox1, Foxc2 peak expression; 4 µM).
`C[C@H](Nc1ccc2c(c1)OCCn1cc(N3C(=O)OC[C@H]3C(F)F)nc1-2)C(N)=O` has a GR50 of greater than 5 µM (A2058; resazurin growth rate inhibition; 72 h).
With `Nc1nc(Nc2ccc(S(N)(=O)=O)cc2)nn1C(=O)c1c(F)cccc1F` the inhibition was 95.2% (BT-12; cell viability, MTT; 10 µM, 72 h).
For `CC(=O)Nc1cccc(-n2c(=O)n(C3CC3)c(=O)c3c(Nc4ccc(I)cc4F)n(C)c(=O)c(C)c32)c1`, the fractional effect was 0.635 (NCI-H2087 (BRAF L597V); 50.00 nM; reference: DMSO).
With `CSCC[C@H](NC(=O)[C@H](Cc1ccc(OS(=O)(=O)O)cc1)NC(=O)[C@@H](N)CC(=O)O)C(=O)NCC(=O)N[C@@H](Cc1c[nH]c2ccccc12)C(=O)N[C@@H](CCSC)C(=O)N[C@@H](CC(=O)O)C(=O)N[C@@H](Cc1ccccc1)C(N)=O` the cAMP accumulation was 0.247 a.u. (HEK293T control virus; agonist, GloSensor cAMP; 0.0256 nM, no receptor expressed; higher = more cAMP).
`NC(=O)NOCCCCCCCCCC[P+](c1ccccc1)(c1ccccc1)c1ccccc1.O=C([O-])C(F)(F)F` — result for “concentration at maximal effect”: 12.5 µM (mouse CD4 T cells, reporter; IFNγ-YFP expression, flow cytometry; 144 h).
`CCN(CC)Cc1ccc2cc(COC(=O)Nc3ccc(C(=O)NO)cc3)ccc2c1` gave a viability of 93.2% (HBL-1; 0.1 µM, 120 h).
For `C=CC1=C(C)c2cc3[n-]c(cc4nc(cc5[n-]c(cc1n2)c(C)c5C=C)C(C)=C4CCC(=O)O)c(CCC(=O)O)c3C.[Zn+2]`, the fold change was 1.56 (SH-SY5Y; RNA-seq, item: PLK2 mRNA; 5 µM, 5 h; reference: untreated cells).
`CCS(=O)(=O)c1nc(C2CC2)cc(C(F)(F)F)n1` — result for “cells with nuclear RelA”: 51.1% and 64.9% (HeLa Kyoto; RelA nuclear import, high content imaging; 5.01 µM, 3 h, added: 1 µM PMA, 60 min).
Under “log2 fold change”, `CCc1cnc(N2CCC(c3nc(COc4ccc(-n5cnnn5)cc4)cs3)CC2)nc1` is recorded as 2.95 (HEK293T; RNA-seq, item: CHAC1 mRNA; 10 µM, 6 h; reference: vehicle).
Under mRNA level, `Cc1ccccc1Cn1cc(-c2cccc(NC(=O)Nc3ccc(F)cc3)c2)nn1` is recorded as “no effect” (Huh-7; RT-PCR, item: oxidative stress and autophagy genes; 10 µM, 72 h).
`CCCNC(=O)Nc1ccc(Oc2ncnc3cc(OC)c(OC)cc23)cc1Cl` has an inhibition of 1% (HeLa expressing Ub(G76V)-GFP; Ub(G76V)-GFP degradation, cycloheximide chase; 12 µM).
For `Cc1cccc(-c2[nH]c(CNc3ccccc3F)nc2-c2ccc3ncnn3c2)n1`, the viability was 24% and 29% and 16% (MM1.S; XTT; 1.8 µM).
`CCOC(=O)NCCCC(=O)NCCc1ccccc1` gave a viability of 130% (HBL-1; 0.1 µM, 120 h).
For `CC(C)[C@H](CO)Nc1nc(Nc2cc(N)cc(Cl)c2)c2ncn(C(C)C)c2n1`, the inhibition was 31% (HeLa expressing Ub(G76V)-GFP; Ub(G76V)-GFP degradation, cycloheximide chase; 12 µM).
`CN(C)C/C=C/C(=O)Nc1cc2c(Nc3ccc(F)c(Cl)c3)ncnc2cc1O[C@H]1CCOC1` has an inhibition of 85.8% (BT-12; cell viability, MTT; 10 µM, 72 h).
With `N=C1NC(=O)/C(=C/c2ccc(O)cc2)S1` the viability was 92.5% (HBL-1; 1 µM, 120 h).
With `CCCCN1CCN(c2ccc3[nH]c(-c4ccc5[nH]c(-c6ccc(OCC)c(OCC)c6)nc5c4)nc3c2)CC1` the growth percent was 35.2% (Hs-578T; SRB; 10 µM, 48 h).
`C=CCn1c(=O)c2cnc(Nc3ccc(N4CCN(C)CC4)cc3)nc2n1-c1ccc2c(n1)[C@@](O)(CC)CC2` gave a γH2AX-positive cells of 55.7% (OVCAR-3; flow cytometry; concentration not given, EdU-negative S phase).
The mRNA level of `COc1cc(/C=C/C(=O)N2CCC=CC2=O)cc(OC)c1OC` is reported as 65.5 ± 2.6% (MDA-MB-468; quantitative RT-PCR, item: FOXM1; 30 µM, 8 h; reference: untreated cells).
`Nc1[nH]nc2nc3ccccc3nc12` gave an inhibition of -17% (HeLa expressing Ub(G76V)-GFP; Ub(G76V)-GFP degradation, cycloheximide chase; 12 µM).
For `CC1(C)CN(CCCCC(=O)N[C@@H](CCCCNC(=O)CCCCCCC(=O)NCCCC[C@H](NC(=O)N[C@@H](CCC(=O)O)C(=O)O)C(=O)O)C(=O)O)CC[N]2CC(C)(C)[S][Tc]2(=[O])[S]1` (stereo partly shown) [technetium-99m labelled], the internalized activity was 0.48 ± 0.01 %AD/mg protein (LNCaP; 25 nM, 1 h, 4 °C).

For quick reference, copied from above:
With `CC[C@H](C)C(=O)O[C@H]1C[C@@H](C)C=C2C=C[C@H](C)[C@H](CC[C@@H]3C[C@@H](O)CC(=O)O3)[C@H]21` the inhibition was 83.7% (BT-12; cell viability, MTT; 10 µM, 72 h).
For `O=C(Nc1nnc2n3c(nc(-c4ccc(Cl)cc4)c1-2)SCC3=O)c1ccccc1`, the cell growth was 89.2% (Hs-578T; SRB; 10 µM, NCI60 single-dose screen; reference: untreated).
With `COc1ccc(-c2ccc3ncc4c(c3c2)n(-c2ccc(N3CCNCC3)c(C(F)(F)F)c2)c(=O)n4C)cn1.O=C(O)/C=C\C(=O)O` the inhibition was 94.3% (BT-12; cell viability, MTT; 10 µM, 72 h).
